Results from different studies.
Numbers after ± are the reported error.
ESR1: Estrogen receptor (ESR1, Homo sapiens, UniProt P03372)
Sequence of UniProt P03372 (whole entry, looked up): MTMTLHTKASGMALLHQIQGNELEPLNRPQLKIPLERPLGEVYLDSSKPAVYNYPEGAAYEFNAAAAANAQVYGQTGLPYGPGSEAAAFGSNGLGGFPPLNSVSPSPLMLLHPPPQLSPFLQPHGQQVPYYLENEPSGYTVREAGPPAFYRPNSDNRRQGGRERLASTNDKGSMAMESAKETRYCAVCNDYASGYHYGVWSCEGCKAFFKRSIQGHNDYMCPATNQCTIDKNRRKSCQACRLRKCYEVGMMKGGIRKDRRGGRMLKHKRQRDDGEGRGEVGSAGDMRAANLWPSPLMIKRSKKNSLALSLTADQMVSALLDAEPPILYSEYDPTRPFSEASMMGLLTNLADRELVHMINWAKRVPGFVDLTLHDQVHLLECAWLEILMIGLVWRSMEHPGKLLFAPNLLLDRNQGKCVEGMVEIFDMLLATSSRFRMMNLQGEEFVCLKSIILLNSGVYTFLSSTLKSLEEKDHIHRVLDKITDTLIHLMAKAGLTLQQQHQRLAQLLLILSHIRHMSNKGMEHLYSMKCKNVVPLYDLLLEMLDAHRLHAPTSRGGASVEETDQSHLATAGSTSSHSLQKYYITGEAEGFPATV
T1: DNA aptamer; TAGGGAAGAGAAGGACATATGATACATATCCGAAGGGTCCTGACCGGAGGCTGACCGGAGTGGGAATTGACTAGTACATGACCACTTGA
T2: pre-miR-21 RNA, A bulge to A-U pair (Homo sapiens); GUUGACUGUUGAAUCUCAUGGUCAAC
Sequence of UniProt Q9BY41 (whole entry, unmodified, looked up): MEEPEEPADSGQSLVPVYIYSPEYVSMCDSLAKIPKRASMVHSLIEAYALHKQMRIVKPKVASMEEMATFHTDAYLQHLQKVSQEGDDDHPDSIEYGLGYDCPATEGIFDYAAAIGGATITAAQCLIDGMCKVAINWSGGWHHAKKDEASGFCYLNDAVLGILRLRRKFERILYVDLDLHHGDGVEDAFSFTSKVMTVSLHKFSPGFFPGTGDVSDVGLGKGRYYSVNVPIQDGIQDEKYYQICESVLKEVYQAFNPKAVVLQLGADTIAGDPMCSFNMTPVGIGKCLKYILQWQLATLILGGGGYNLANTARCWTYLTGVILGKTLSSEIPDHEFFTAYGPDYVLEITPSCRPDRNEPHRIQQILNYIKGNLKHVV
Sequence of UniProt Q29437 (whole entry, looked up): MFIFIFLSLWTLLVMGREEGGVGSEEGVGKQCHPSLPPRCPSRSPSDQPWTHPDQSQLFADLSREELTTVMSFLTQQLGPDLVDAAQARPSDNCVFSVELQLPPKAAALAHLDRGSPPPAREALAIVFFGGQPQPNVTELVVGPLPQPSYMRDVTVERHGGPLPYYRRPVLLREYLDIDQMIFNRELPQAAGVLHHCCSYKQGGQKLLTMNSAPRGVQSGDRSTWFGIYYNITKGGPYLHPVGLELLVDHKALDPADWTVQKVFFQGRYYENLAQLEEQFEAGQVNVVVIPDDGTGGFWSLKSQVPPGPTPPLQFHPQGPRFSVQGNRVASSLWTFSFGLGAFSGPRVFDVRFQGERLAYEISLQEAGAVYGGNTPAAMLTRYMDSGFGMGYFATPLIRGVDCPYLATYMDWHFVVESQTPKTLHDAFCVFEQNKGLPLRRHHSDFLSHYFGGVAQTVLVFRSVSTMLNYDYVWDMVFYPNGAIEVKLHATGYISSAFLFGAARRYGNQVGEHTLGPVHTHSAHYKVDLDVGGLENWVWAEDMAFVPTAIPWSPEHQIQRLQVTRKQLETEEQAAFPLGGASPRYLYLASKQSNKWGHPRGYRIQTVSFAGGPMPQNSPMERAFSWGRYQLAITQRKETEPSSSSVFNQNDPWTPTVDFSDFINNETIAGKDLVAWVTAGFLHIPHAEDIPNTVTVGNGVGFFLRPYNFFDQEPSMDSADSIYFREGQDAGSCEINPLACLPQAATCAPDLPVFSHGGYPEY
Sequence of UniProt P18031 (whole entry, looked up): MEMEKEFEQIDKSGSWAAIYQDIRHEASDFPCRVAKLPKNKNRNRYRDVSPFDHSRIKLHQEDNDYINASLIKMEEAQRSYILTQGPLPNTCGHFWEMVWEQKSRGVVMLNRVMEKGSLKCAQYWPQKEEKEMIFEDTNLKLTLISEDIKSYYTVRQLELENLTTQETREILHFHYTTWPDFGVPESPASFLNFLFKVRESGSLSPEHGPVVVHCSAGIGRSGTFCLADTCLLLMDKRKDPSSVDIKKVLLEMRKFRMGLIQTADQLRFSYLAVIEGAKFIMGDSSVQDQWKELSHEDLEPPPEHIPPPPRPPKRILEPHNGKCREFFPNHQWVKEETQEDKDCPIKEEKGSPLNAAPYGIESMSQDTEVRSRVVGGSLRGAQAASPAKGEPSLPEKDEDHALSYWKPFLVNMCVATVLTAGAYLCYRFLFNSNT
Sequence of UniProt P00433 (whole entry, looked up): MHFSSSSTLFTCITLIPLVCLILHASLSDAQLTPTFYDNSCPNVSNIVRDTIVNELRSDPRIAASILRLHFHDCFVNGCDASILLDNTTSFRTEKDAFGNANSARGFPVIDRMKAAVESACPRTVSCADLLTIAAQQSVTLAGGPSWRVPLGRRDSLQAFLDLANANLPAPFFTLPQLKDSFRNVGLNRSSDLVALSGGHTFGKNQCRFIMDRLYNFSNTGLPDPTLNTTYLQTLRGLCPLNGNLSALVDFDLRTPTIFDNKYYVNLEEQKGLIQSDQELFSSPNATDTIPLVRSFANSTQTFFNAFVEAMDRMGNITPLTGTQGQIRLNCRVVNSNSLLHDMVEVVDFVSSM
Sequence of UniProt P20309 (whole entry, looked up): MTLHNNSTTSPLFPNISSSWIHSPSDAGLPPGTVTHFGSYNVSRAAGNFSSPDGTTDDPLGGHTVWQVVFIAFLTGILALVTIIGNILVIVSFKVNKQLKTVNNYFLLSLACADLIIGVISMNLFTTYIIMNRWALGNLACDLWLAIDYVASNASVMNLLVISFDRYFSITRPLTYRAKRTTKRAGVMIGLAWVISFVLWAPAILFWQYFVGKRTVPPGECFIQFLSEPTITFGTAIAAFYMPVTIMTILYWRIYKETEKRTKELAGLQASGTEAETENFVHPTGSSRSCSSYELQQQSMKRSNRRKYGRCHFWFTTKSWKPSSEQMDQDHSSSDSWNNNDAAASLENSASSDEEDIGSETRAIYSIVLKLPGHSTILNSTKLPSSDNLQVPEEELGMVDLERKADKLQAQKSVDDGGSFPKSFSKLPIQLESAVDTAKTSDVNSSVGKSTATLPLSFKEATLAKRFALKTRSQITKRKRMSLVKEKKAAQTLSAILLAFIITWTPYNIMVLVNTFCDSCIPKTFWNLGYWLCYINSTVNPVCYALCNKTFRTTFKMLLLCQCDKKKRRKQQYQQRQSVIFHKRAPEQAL
Sequence of UniProt P35372 (whole entry, looked up): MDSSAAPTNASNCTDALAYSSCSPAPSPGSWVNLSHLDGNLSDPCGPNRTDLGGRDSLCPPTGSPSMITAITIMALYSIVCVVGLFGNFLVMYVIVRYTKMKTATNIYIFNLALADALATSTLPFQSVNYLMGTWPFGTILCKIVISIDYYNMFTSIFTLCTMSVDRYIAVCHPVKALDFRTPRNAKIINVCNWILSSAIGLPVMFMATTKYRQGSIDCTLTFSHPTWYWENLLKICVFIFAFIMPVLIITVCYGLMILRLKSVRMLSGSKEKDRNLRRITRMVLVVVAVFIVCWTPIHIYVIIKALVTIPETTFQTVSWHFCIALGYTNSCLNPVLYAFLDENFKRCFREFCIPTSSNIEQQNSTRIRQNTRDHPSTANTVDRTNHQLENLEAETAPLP
Sequence of UniProt P30542 (whole entry, looked up): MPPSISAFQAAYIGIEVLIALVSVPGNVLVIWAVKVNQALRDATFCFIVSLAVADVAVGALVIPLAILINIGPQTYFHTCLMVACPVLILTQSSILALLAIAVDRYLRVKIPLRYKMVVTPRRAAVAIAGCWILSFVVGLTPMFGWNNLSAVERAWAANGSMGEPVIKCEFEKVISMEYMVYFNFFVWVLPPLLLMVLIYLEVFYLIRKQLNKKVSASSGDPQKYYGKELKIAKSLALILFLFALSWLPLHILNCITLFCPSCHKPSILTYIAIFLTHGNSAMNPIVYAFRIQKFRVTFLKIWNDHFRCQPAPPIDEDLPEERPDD
Sequence of UniProt P80075 (whole entry, unmodified, looked up): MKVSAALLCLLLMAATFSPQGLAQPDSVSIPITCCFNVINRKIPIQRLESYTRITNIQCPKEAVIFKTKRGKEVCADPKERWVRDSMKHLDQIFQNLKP
Sequence of UniProt Q61143 (whole entry, unmodified, looked up): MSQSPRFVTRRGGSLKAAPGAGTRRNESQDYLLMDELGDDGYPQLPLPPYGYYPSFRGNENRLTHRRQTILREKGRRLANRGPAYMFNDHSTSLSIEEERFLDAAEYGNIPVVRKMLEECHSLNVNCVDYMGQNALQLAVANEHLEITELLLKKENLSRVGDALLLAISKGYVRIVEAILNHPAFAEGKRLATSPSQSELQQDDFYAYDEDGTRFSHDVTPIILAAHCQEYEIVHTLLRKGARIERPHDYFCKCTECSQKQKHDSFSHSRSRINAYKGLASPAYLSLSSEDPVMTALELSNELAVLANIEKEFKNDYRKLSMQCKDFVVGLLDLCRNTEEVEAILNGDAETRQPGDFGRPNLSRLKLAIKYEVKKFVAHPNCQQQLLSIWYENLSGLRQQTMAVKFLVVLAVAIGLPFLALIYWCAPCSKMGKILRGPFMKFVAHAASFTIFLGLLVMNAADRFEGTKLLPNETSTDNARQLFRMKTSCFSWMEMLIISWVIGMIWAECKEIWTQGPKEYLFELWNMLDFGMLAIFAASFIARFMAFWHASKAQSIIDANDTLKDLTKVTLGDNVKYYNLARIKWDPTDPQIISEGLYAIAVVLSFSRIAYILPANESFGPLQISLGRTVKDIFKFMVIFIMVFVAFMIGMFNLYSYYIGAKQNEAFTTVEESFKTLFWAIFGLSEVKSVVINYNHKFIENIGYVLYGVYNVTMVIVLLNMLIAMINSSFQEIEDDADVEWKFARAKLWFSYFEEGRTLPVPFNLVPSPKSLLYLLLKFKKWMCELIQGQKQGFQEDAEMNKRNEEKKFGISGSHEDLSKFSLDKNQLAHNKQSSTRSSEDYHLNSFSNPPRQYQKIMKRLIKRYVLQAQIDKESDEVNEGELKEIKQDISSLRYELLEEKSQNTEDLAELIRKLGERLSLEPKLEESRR

O=C(CSC(=S)N1CCCCCC1)Nc1cccc2c1C(=O)c1ccccc1C2=O  phosphorylation decrease (FYN (Homo sapiens, UniProt P06241); RTK phosphorylation antibody array; A549; concentration not given; reference: control): 2.8 fold
COc1cc(O)c(CC=C(C)C)c2c1C(=O)[C@H](O)[C@@H](c1ccccc1)O2  binding site number (PTPN1 (Homo sapiens, UniProt P18031); fluorescence quenching; concentration not given): 0.95
Cc1ccc(C(C)C)cc1.[C-]#[O+].[C-]#[O+].[C-]#[O+].[Cl-].[Cl-].[Cl-].[Re+].[Ru+2].c1cnc(-c2ncccn2)nc1  Stern-Volmer constant (Albumin (ALB, Homo sapiens, UniProt P02768); tryptophan fluorescence quenching): 55000 M⁻¹
C=CCCCCCCO[C@@H]1O[C@H](CO)[C@@H](O)[C@H](O[C@@H]2O[C@H](CO)[C@H](O)[C@H](O)[C@H]2O[C@@H]2O[C@@H](C)[C@@H](O)[C@@H](O)[C@@H]2O)[C@H]1NC(C)=O  kon (ABO (Homo sapiens, UniProt P16442, G235S/G268A/L266M/R176G); methyl-TROSY NMR titration lineshape analysis; apo enzyme): 500000 M⁻¹ s⁻¹
O=C(c1cc2c(s1)CCCCC2)N1CCC(n2c(=O)[nH]c3ccccc32)CC1  maximal current density (Trpc6 (Mus musculus, UniProt Q61143, K697R); ion current, agonist, whole-cell patch clamp; 100 µM, K697R mutant): 8.53 ± 2.36 pA/pF
CC(C)C[C@H](NC(=O)[C@H](C)NC(=O)[C@H](CO)NC(=O)[C@@H]1CCCN1C(=O)[C@@H]1CCCN1C(=O)[C@H](CCC(N)=O)NC(=O)[C@H](CC(C)C)NC(=O)[C@@H](N)[C@@H](C)O)C(=O)N[C@@H](CCCNC(=N)N)C(=O)N[C@@H](CCCNC(=N)N)C(=O)N[C@@H](CCCNC(=N)N)C(=O)N[C@@H](Cc1c[nH]cn1)C(=O)N[C@@H](Cc1ccc(O)cc1)C(=O)N[C@@H](Cc1c[nH]cn1)C(=O)N[C@@H](Cc1c[nH]cn1)C(=O)N[C@@H](C)C(=O)N[C@@H](CC(C)C)C(=O)N1CCC[C@H]1C(=O)N1CCC[C@H]1C(=O)N[C@@H](CO)C(=O)N[C@@H](CCCNC(=N)N)C(=O)O  Emax (C3AR1 (Homo sapiens, UniProt Q16581); β-arrestin recruitment, agonist, BRET): 52%
O=C1c2ccc(O)cc2OC2c3cc(-c4coc5cc(O)ccc5c4=O)ccc3OC12c1ccc(O)cc1 (stereo not shown)  Vmax (PRXC1A (Armoracia rusticana, UniProt P00433); oxidation, substrate): 15.1 ± 1.2 µmol/min/mg
CCCCCCOc1ccc(C(=O)OCCN2CC=CCC2)cc1  dissociation half-time (CHRM3 (Homo sapiens, UniProt P20309); recovery of [3H]NMS binding after washing; membranes; 100 µM): 2.7 ± 0.3 h
N=C(N)NCCC[C@H](NC(=O)[C@H](CC(=O)O)NC(=O)[C@@H]1CSCCC(=O)NCC(=O)N[C@@H](Cc2c[nH]cn2)C(=O)N[C@H](Cc2ccccc2)C(=O)N[C@@H](CCCNC(=N)N)C(=O)N[C@@H](Cc2c[nH]c3ccccc23)C(=O)N1)C(=O)N[C@@H](Cc1ccccc1)C(=O)NCC(N)=O  activation (MC1R (Homo sapiens, UniProt Q01726); cAMP accumulation, agonist; HEK293 expressing MC1R; 10 µM; reference: MT-II): 10%
OC[C@H]1O[C@@H](n2cnc3c(Nc4cccc(Br)c4)ncnc32)[C@H](O)[C@@H]1O  koff (ADORA3 (Homo sapiens, UniProt P0DMS8); kinetic radioligand binding; 10 °C, no GTP, with: [3H]PSB-11): 0.0011 ± 4e-05 s⁻¹
O=C(NC1CC=C(c2cc3c(Nc4cc5ncsc5cc4F)ncnc3s2)CC1)NC1CC1 (racemic)  remaining activity (RIPK1 (Homo sapiens, UniProt Q13546); enzyme activity; 1 µM; reference: untreated): 99 ± 2%
C[N+](C)(C)CCCCOc1ccc2cc(CN)ccc2c1  kcat (Primary amine oxidase, liver isozyme (Bos taurus, UniProt Q29437); substrate, fluorescence; pH 7.2, 30 °C): 0.0154 ± 0.0007 s⁻¹
Cc1cc(=O)oc2cc(NC(=O)CCCCCCCC(=O)NO)ccc12  TΔS (HDAC8 (Homo sapiens, UniProt Q9BY41); ITC; Tris-HCl buffer; pH 7.5, 25 °C): 4.1 ± 0.1 kcal/mol
CC(=O)C12NC(C)(C)CC1(C)C(=O)C1=C2c2c(c3c4n2C(C)(C)CC2=C4C4(CC(C)(C)NC(C)(C4)C2=O)CC3(C)C)C(=O)C(C)(C)N1 (single isomer, unassigned; (-))  activity (OPRM1 (Homo sapiens, UniProt P35372); cAMP level, agonist, LANCE Ultra cAMP; CHO cells; concentration not given): inactive
CC1=C(/C=C/C(C)=C/C=C/C(C)=C/C=O)C(C)(C)CCC1  association constant K3 (CNGA1 (Bos taurus, UniProt Q00194); channel binding, allosteric model fit): 2.8e+10 M^-n
C=C1C(=O)O[C@@H]2[C@H]3C(CO)=CC(=O)C3=C(C)C[C@H](O)[C@@H]12  quenching rate constant Kq (MAL12 (Saccharomyces cerevisiae S288c, UniProt P53341); fluorescence quenching; 298 K): 6.63e+11 M⁻¹ s⁻¹
C[C@@H](N)[C@H]1CC[C@H](C(=O)Nc2ccncc2)CC1  activity vs control (PRKX (Homo sapiens, UniProt P51817); enzyme activity, inhibitor, radiometric; 10 µM): < 10%
CCC(=C(c1ccc(Cl)cc1)c1ccc(OCCCN(C)C)cc1)c1ccccc1  β-galactosidase activity fold (ESR1; reporter gene, agonist, yeast estrogen screen; 1 µM; reference: DMSO): 2.2
Oc1ccccc1C(N=Nc1ccccc1)=NNc1ccccn1  metal binding (Cu(II) and Zn(II); metal coordination test; concentration not given): binds
CCNC(=O)[C@H]1O[C@@H](n2cnc3c(NCCCCCCCCCCCNS(=O)(=O)c4cccc5c(N(C)C)cccc45)ncnc32)[C@H](O)[C@@H]1O  maximal inhibition (ADORA1 (Homo sapiens, UniProt P30542); radioligand binding, whole-cell binding; CHO-A1; 2 h, with: [3H]DPCPX; reference: specific binding, 10 µM XAC): 44.8 ± 2.3%
CCC(=C(c1ccc(Cl)cc1)c1ccc(OCCN2CCCCCC2)cc1)c1ccccc1  fold activation (ESR1; reporter gene, agonist, yeast estrogen screen; 1 µM; reference: DMSO): 2.98 ± 0.44 fold
NCc1ccc(NC(=O)c2ccc3ccccc3c2O)cc1  activity recovered after dilution (human TMPRSS2 and HAT; jump dilution; concentration not given, 15 min preincubation, 1/100 dilution): > 80%
CC(CCC(=O)NC(CCC(=O)Nc1cccc(N)n1)C(=O)O)C1CCC2C3C(O)CC4CC(O)CCC4(C)C3CCC12C (stereo not shown)  Kt (SLC10A2 (Homo sapiens, UniProt Q12908); transport, substrate, LC-MS/MS; ASBT-MDCK cells): 4.44 µM
CC(C)[C@H](NC(=O)[C@@H]1CCCN1C(=O)[C@H](CCCCN)NC(=O)[C@H](Cc1ccccc1)NC(=O)[C@H](Cc1ccccc1)NC(=O)[C@H](CC(=O)O)NC(=O)[C@H](CCC(=O)O)NC(=O)[C@H](Cc1ccc(O)cc1)NC(=O)[C@H](CC(=O)O)NC(=O)[C@H](CCC(=O)O)NC(=O)[C@H](CC(=O)O)NC(=O)[C@H](CCC(=O)O)NC(=O)[C@@H](N)Cc1ccc(O)cc1)C(=O)N[C@H](C(=O)N[C@@H](CSSC[C@H](NC(=O)[C@@H](NC(=O)[C@@H](NC(=O)[C@@H]1CCCN1C(=O)[C@H](CCCCN)NC(=O)[C@H](Cc1ccccc1)NC(=O)[C@H](Cc1ccccc1)NC(=O)[C@H](CC(=O)O)NC(=O)[C@H](CCC(=O)O)NC(=O)[C@H](Cc1ccc(O)cc1)NC(=O)[C@H](CC(=O)O)NC(=O)[C@H](CCC(=O)O)NC(=O)[C@H](CC(=O)O)NC(=O)[C@H](CCC(=O)O)NC(=O)[C@@H](N)Cc1ccc(O)cc1)C(C)C)[C@@H](C)O)C(=O)N[C@@H](Cc1ccc(O)cc1)C(=O)N[C@@H](Cc1ccccc1)C(N)=O)C(=O)N[C@@H](Cc1ccc(O)cc1)C(=O)N[C@@H](Cc1ccccc1)C(N)=O)[C@@H](C)O  binding enthalpy ΔH (C-C motif chemokine 8 (CCL8, Homo sapiens, UniProt P80075); isothermal titration calorimetry; concentration not given): -6.72 ± 0.379 kcal/mol
CCC(=C(c1ccc(O)cc1)c1ccc(OCCN(C)CCOCCOCCOCCOCCOCCOCCOCCOCCOCCOCCOCCN(C)CCOc2ccc(C(=C(CC)c3ccccc3)c3ccc(O)cc3)cc2)cc1)c1ccccc1 (mixture of isomers)  relative binding affinity (ESR1; concentration not given, Z-Z:Z-E:E-E 1:2:1, with: [3H]-estradiol; reference: estradiol): 21.8 ± 3.1%
C[C@]12CC[C@@H]3c4ccc(O)cc4C(=NOCC(=O)O)C[C@H]3[C@@H]1CC[C@@H]2O  Kd (T1, DNA aptamer; plate-ELAA; NaCl 100 mM): 2.22 nM
CN1CCN(c2ccc(-c3ccc4[nH]c(-c5ccc(OCCCC(=O)N6CCN(c7nncc8sccc78)CC6)cc5)nc4c3)cc2)CC1  Kd (T2, pre-miR-21 RNA, A bulge to A-U pair (Homo sapiens); microscale thermophoresis): > 10000 nM
COc1ccc(C(/C=C\CN2CCC[C@H](C(=O)O)C2)(c2ccc(OC)cc2)c2ccc(OC)cc2)cc1  remaining specific binding (Sodium- and chloride-dependent glycine transporter 1, isoform GlyT1c (SLC6A9, Homo sapiens, UniProt P48067); inhibitor, MS binding competition; 1.0 µM, pH 7.5, 22 °C, compound mixture deconvolution, with: Org24598 15 nM): 38.9 ± 1%

A few entries again:
C=CCCCCCCO[C@@H]1O[C@H](CO)[C@@H](O)[C@H](O[C@@H]2O[C@H](CO)[C@H](O)[C@H](O)[C@H]2O[C@@H]2O[C@@H](C)[C@@H](O)[C@@H](O)[C@@H]2O)[C@H]1NC(C)=O  kon (ABO (Homo sapiens, UniProt P16442, G235S/G268A/L266M/R176G); methyl-TROSY NMR titration lineshape analysis; apo enzyme): 500000 M⁻¹ s⁻¹
O=C(c1cc2c(s1)CCCCC2)N1CCC(n2c(=O)[nH]c3ccccc32)CC1  maximal current density (Trpc6 (Mus musculus, UniProt Q61143, K697R); ion current, agonist, whole-cell patch clamp; 100 µM, K697R mutant): 8.53 ± 2.36 pA/pF
CCC(=C(c1ccc(O)cc1)c1ccc(OCCN(C)CCOCCOCCOCCOCCOCCOCCOCCOCCOCCOCCOCCN(C)CCOc2ccc(C(=C(CC)c3ccccc3)c3ccc(O)cc3)cc2)cc1)c1ccccc1 (mixture of isomers)  relative binding affinity (ESR1; concentration not given, Z-Z:Z-E:E-E 1:2:1, with: [3H]-estradiol; reference: estradiol): 21.8 ± 3.1%
